Measured values collected from several papers.

O=C(Nc1nc2cccc(-c3ccc(CN4CCS(=O)(=O)CC4)cc3)n2n1)C1CC1  incidence of dizziness (rheumatoid arthritis patients; oral, 300 mg once daily, 4 weeks, TEAE regardless of relatedness): 0%
NC1(C(=O)N[C@@H](CCO)c2ccc(Cl)cc2)CCN(c2nc[nH]c3nccc2-3)CC1  incidence of blood creatinine increased (metastatic CRPC patients; 480 mg b.i.d., any grade, treatment-related, with: enzalutamide 160 mg daily): 0%
C=CC(=O)Nc1cc(Nc2nccc(-c3cn(C)c4ccccc34)n2)c(OC)cc1N(C)CCN(C)C  incidence of treatment-related AEs (refers to: drug hypersensitivity; EGFR-mutant MET-altered NSCLC patients; oral, dose not given, AE grade ≥3, all): 4%
NCCONC(=O)[C@@H]1CC[C@@H]2CN1C(=O)N2OS(=O)(=O)O  incidence of serious TRAE (healthy Chinese male subjects; intravenous, 2 g): 0%
C[C@@H](c1ccc2nccn2c1)n1nnc2ncc(-c3cnn(C)c3)nc21  incidence of treatment-related AEs (refers to: ALT increased; EGFR-mutant MET-altered NSCLC patients; oral, dose not given, AE grade ≥3): 0%
COc1ccc([C@@H](O)c2cc(-c3ncnc4cc(N5CCOCC5)ccc34)c(F)cc2Cl)nn1  incidence of proctalgia TEAE (locally advanced rectal cancer; oral, 150 mg, with: capecitabine and radiotherapy): 50%
N#CCNC(=O)c1ccc(-c2ccnc(Nc3ccc(N4CCOCC4)cc3)n2)cc1  incidence of peripheral neuropathy (patients with myelofibrosis; oral, 200 mg, 24 weeks, phase III trials): 9.1%
C[C@@H](N)C1CCN(S(=O)(=O)c2cccc3cnccc23)CC1  incidence of orthostatic hypotension TEAE (healthy volunteers; 150 mg, fed): 0%
CCO[C@H]1CCN(Cc2c(OC)cc(C)c3[nH]ccc23)[C@H](c2ccc(C(=O)O)cc2)C1  incidence of dry throat (PNH patients, active haemolysis; oral, 100 mg, 8 weeks, treatment): 14.3%

Repeated from above:
C[C@@H](N)C1CCN(S(=O)(=O)c2cccc3cnccc23)CC1  incidence of orthostatic hypotension TEAE (healthy volunteers; 150 mg, fed): 0%
CCO[C@H]1CCN(Cc2c(OC)cc(C)c3[nH]ccc23)[C@H](c2ccc(C(=O)O)cc2)C1  incidence of dry throat (PNH patients, active haemolysis; oral, 100 mg, 8 weeks, treatment): 14.3%
